Results pooled from the literature.
Each line is one published result; not all experiments were run side by side. Values joined by “and” are separate records of one study, mostly repeats; a detail may differ. ± gives the spread as reported.
PPM1D: Protein phosphatase 1D (PPM1D, Homo sapiens, UniProt O15297)
Chain of UniProt O15297 (whole entry, looked up): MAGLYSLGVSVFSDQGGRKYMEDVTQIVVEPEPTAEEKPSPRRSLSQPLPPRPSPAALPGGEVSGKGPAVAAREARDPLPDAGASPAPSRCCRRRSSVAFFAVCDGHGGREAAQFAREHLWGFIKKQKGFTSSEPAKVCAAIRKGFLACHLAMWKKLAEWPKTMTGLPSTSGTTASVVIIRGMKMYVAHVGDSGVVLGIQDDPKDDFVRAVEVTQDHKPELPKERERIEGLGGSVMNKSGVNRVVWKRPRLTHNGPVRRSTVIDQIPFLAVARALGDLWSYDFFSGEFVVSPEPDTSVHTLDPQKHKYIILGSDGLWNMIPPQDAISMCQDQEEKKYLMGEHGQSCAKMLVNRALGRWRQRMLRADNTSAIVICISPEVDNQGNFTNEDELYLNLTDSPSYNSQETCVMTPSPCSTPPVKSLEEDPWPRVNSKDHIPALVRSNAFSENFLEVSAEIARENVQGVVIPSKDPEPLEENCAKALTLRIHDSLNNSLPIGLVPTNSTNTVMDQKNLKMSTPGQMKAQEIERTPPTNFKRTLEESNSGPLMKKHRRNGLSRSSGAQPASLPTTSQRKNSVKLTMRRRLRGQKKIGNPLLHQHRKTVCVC
Oprd1: Delta-type opioid receptor (Oprd1, Rattus norvegicus, UniProt P33533)
Chain of UniProt P33533 (whole entry, looked up): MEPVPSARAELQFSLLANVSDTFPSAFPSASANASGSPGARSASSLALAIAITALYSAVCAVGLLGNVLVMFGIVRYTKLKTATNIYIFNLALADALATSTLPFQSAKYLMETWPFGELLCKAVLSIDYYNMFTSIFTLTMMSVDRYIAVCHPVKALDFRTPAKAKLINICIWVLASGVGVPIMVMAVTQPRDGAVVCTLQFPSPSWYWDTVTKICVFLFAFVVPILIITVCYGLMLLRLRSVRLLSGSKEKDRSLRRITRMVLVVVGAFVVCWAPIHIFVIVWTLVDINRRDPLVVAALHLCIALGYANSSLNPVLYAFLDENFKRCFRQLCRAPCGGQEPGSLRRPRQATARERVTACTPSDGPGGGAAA
NPFFR1: Neuropeptide FF receptor 1 (NPFFR1, Homo sapiens, UniProt Q9GZQ6)
Chain of UniProt Q9GZQ6 (whole entry, looked up): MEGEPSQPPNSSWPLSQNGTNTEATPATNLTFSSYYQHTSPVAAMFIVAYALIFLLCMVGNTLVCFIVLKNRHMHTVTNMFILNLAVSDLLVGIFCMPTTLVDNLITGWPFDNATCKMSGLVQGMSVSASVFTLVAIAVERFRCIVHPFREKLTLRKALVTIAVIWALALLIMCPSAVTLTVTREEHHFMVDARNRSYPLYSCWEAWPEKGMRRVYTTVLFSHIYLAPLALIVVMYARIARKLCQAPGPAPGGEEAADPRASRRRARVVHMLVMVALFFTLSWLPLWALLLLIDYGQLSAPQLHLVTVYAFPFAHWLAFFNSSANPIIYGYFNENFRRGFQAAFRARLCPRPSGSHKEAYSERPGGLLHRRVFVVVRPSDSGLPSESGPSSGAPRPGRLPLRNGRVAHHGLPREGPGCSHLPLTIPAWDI
CHRM2: Muscarinic acetylcholine receptor M2 (CHRM2, Homo sapiens, UniProt P08172)
Chain of UniProt P08172 (whole entry, looked up): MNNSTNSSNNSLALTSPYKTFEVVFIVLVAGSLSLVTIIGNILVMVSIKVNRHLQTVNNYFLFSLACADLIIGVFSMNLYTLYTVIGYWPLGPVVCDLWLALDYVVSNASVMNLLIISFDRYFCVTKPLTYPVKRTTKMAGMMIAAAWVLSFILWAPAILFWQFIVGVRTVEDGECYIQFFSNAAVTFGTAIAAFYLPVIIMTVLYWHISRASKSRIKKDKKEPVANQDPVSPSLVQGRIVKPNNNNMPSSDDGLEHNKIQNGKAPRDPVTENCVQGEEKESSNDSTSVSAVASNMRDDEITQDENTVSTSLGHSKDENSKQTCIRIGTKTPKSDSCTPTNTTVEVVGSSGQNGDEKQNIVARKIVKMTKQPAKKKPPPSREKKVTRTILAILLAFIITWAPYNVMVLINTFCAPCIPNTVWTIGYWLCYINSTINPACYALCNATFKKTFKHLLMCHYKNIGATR
RXFP3: Relaxin-3 receptor 1 (RXFP3, Homo sapiens, UniProt Q9NSD7)
Chain of UniProt Q9NSD7 (whole entry, looked up): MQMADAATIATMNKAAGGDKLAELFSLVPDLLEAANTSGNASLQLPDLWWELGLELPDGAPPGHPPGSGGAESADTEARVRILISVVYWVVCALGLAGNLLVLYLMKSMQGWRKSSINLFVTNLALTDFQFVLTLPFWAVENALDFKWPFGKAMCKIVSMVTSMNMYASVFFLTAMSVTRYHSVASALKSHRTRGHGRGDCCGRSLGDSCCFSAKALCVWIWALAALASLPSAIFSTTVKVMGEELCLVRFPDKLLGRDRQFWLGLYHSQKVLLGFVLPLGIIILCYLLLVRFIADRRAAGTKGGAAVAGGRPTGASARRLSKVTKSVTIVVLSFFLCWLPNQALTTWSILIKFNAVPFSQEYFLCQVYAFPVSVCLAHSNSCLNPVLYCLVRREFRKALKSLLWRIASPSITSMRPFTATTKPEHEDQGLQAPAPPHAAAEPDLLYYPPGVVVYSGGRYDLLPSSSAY
HTR6: 5-hydroxytryptamine receptor 6 (HTR6, Homo sapiens, UniProt P50406)
Chain of UniProt P50406 (whole entry, looked up): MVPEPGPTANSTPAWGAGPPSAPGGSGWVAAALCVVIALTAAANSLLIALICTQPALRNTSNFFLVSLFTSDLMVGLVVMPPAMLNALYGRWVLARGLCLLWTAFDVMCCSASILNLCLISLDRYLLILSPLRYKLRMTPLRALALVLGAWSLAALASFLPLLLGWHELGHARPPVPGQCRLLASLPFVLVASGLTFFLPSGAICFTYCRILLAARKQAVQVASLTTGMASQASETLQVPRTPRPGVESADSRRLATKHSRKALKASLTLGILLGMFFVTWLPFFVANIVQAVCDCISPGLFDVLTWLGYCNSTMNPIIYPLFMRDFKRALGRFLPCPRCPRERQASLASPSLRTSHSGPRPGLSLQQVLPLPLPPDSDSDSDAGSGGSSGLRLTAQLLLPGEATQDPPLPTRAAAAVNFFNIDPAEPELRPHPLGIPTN
Chain of UniProt P35348 (whole entry, looked up): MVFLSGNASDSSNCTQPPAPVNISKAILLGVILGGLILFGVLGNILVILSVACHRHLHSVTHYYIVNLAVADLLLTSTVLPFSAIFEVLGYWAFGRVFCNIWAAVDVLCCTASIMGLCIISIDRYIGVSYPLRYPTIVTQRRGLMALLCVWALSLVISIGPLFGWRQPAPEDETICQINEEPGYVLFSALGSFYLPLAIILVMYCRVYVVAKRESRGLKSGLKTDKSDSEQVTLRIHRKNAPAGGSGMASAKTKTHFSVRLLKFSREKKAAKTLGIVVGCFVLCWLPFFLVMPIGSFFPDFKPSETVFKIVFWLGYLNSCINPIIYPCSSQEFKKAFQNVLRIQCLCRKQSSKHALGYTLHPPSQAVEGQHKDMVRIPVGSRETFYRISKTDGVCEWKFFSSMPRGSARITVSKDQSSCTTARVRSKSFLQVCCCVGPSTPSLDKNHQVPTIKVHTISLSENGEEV
Chain of UniProt P22303 (whole entry, looked up): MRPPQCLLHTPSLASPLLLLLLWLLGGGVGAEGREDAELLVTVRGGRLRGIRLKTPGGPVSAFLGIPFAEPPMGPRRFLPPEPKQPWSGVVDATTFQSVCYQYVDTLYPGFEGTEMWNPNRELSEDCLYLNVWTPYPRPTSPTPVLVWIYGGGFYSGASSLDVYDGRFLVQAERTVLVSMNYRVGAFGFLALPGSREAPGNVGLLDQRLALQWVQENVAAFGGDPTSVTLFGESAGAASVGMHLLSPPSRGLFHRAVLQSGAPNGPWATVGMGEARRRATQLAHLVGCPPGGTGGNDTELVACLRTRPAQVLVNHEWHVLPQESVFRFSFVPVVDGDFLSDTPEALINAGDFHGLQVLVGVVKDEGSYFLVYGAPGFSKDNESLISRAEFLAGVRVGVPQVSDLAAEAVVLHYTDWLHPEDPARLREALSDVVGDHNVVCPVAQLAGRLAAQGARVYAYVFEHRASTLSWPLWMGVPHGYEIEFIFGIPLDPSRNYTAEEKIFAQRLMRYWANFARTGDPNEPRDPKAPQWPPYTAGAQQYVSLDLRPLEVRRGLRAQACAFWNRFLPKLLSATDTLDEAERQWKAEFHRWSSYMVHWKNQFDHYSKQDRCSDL
Chain of UniProt P04062 (whole entry, looked up): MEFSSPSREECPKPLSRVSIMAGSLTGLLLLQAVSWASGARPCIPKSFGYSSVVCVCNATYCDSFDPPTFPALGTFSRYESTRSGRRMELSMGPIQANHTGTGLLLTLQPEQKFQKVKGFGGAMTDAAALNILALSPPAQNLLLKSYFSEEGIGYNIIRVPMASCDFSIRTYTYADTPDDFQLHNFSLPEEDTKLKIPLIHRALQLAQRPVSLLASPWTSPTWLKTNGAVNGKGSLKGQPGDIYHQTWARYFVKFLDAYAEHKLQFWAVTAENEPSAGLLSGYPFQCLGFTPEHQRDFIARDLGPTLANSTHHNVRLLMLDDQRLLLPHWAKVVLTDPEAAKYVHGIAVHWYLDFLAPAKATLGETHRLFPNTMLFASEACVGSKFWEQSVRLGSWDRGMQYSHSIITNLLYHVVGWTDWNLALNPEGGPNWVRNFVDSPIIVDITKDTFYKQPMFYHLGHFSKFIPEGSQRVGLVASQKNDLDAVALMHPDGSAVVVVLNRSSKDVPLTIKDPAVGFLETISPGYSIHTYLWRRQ
Chain of UniProt P98170 (whole entry, looked up): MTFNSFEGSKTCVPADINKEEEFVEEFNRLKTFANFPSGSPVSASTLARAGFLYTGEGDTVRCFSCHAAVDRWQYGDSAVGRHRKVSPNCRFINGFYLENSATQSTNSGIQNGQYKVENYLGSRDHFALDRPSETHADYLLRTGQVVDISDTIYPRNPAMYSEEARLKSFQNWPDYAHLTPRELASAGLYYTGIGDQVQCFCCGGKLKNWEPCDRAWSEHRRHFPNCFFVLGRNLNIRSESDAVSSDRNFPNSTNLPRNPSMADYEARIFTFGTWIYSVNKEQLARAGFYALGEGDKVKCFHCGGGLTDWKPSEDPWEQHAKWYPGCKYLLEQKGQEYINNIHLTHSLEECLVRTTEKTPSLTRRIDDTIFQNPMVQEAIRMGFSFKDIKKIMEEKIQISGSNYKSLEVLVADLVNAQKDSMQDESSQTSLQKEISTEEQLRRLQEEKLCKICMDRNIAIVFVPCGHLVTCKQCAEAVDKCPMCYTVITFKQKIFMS

Compound | target | test | system | setting | Ki
COc1ccc(CC[C@H]2OC(=O)[C@@H]3CCCCN3C(=O)C(=O)C(C)(C)COC(=O)/C=C/CCN(C)C(=O)[C@H](CC(C)C)N(C)C(=O)[C@@H]3CCCN3C(=O)[C@H](Cc3ccccc3)N(C)C(=O)[C@H](c3ccccc3)NC(=O)CCC(=O)Nc3cccc2c3)cc1OC | FKBP1A (Homo sapiens, UniProt P62942) | enzyme activity, inhibitor | – | – | 3.7 nM
CCCCCCCCCCCCCCCC(=O)N[C@@H](CCC(=O)NCCCC[C@H](N)C(=O)NCC(=O)N[C@@H](CO)C(=O)NCC(=O)N[C@@H](CO)C(=O)NCC(=O)N[C@H]1CSSC[C@@H]2NC(=O)CNC(=O)[C@H](C)NC(=O)[C@H](CC(C)C)NC(=O)[C@@H]3CSSC[C@@H](C(=O)NCC(=O)O)NC(=O)[C@H](Cc4ccccc4)NC(=O)CNC(=O)[C@H](CC(N)=O)NC(=O)[C@@H]4CCCN4C(=O)CNC(=O)[C@H](CSSC[C@H](NC(=O)[C@H](CCCNC(=N)N)NC(=O)[C@H](CCSC)NC(=O)[C@H](CC(C)C)NC(=O)[C@H]([C@@H](C)CC)NC(=O)[C@H](CCCNC(=N)N)NC(=O)[C@@H]4CCCN4C1=O)C(=O)N[C@@H](CCCCN)C(=O)N[C@@H](CCC(N)=O)C(=O)N[C@@H](CC(=O)O)C(=O)N[C@@H](CO)C(=O)N[C@@H](CC(=O)O)C(=O)N3)NC(=O)[C@H](C(C)C)NC2=O)C(=O)O | Trypsin (Sus scrofa, UniProt P00761) | enzyme activity, inhibitor, fluorescence | – | with preincubation | 0.132 nM
CSC[C@H]1CN(Cc2c[nH]c3c(N)ncnc23)C[C@@H]1O | MTA/SAH nucleosidase (Campylobacter jejuni subsp. jejuni, UniProt Z9IB28FKP7) | enzyme activity, inhibitor | – | slow-onset tight binding | 2.9 nM
CC[C@H](C)[C@@H]1NC(=O)[C@H](CCOP(=O)(O)O)NC(=O)[C@H](Cc2ccccc2)NC(=O)CSC[C@@H](C(N)=O)NC(=O)[C@H](CC(=O)O)NC(=O)[C@H](CC(=O)O)NC(=O)[C@H](Cc2ccc(OP(=O)(O)O)cc2)NC1=O | PPM1D | phosphatase activity, inhibitor, malachite green | – | together with: ATM pS1981 peptide | 2900 ± 500 nM
CCc1cc(Cc2ccccc2)cc2c1NCCC2NC(=O)C(N)Cc1c(C)cc(O)cc1C (stereo not drawn) | Oprd1 | ligand displacement, radioligand | – | cell membranes | 1.9 nM
N=C(N)Nc1ccc(CC(=O)NCC2(Nc3ccccc3)CCN(Cc3ccccc3)CC2)cc1 | NPFFR1 | cell-free assay | – | – | 2350 nM
CCN1CCN(C2=Nc3cc(Cl)ccc3Nc3ccccc32)CC1 | ADRA1A (Homo sapiens, UniProt P35348) | ligand displacement, radioligand | – | – | 46 nM and 16 to 46 nM
Cc1cc(O)cc(C)c1CC(N)C(=O)NC1CCNc2c(CN3CCCCC3)cc(Cc3ccccc3)cc21 (stereo not drawn) | Oprd1 | ligand displacement, radioligand | – | cell membranes | 4.4 nM
N[C@@H](Cc1ccccc1)P(=O)(O)O | PAL1 (Petroselinum crispum, UniProt P24481) | enzyme activity, inhibitor, absorbance | – | pH 8.8 | 660 nM
COc1cc(/C=C/C(=O)CC(=O)/C=C/c2ccc(OC(=O)CCc3c[nH]c4ccccc34)c(OC)c2)ccc1OC(=O)CCc1c[nH]c2ccccc12 | Cholinesterase (BCHE, Homo sapiens, UniProt P06276) | enzyme activity, inhibitor | – | – | 49000 nM
COC(=O)C1C(OC(c2ccc(Cl)cc2)c2ccc(Cl)cc2)CC2CCC1N2C (single isomer, unassigned) | CHRM2 | ligand displacement, radioligand | – | – | 1220 nM
CC[C@H](C)[C@@H]1NC(=O)[C@H](Cc2ccccc2)NC(=O)[C@H](CCC(=O)O)NC(=O)[C@H](CCCNC(=N)N)NC(=O)[C@](C)(NC(=O)[C@H](CS)NC(=O)[C@H](CC(C)C)NC(=O)[C@H](CCCNC(=N)N)NC(=O)[C@@H](NC(=O)CNC(=O)[C@H](Cc2ccc(O)cc2)NC(=O)[C@@H]2CCCN2C(=O)[C@H](C)NC(=O)[C@H](C)NC(=O)[C@@H](N)CCCNC(=N)N)C(C)C)CCCC=CCCCCCC[C@@](C)(C(=O)N[C@H](C(=O)N[C@@H](Cc2ccccc2)C(=O)N[C@H](C(=O)N[C@@H](CS)C(=O)NCC(=O)NCC(=O)N[C@@H](CO)C(=O)N[C@@H](CCCNC(=N)N)C(=O)N[C@@H](Cc2c[nH]c3ccccc23)C(=O)O)[C@@H](C)O)[C@@H](C)CC)NC(=O)[C@H](C)NC(=O)[C@H](CCCNC(=N)N)NC1=O | RXFP3 | ligand displacement | – | – | 331 nM
CCCCn1c2ccccc2c2cc(C(=O)c3cccc4ccccc34)ccc21 | CNR1 (Homo sapiens, UniProt P21554) | ligand displacement, radioligand | – | cell membranes | 77.6 nM
CNC(C)C(=O)NC1COC2CCC(C(=O)NCc3ccccc3)N2C1=O (mixture of isomers) | E3 ubiquitin-protein ligase XIAP, BIR2 (XIAP, Homo sapiens, UniProt P98170) | ligand displacement, FP | – | – | > 56000 nM
Cc1cc(O)cc(C)c1CC(N)C(=O)NC1CCNc2c(Cc3ccccc3)cccc21 (stereo not drawn) | Oprd1 | ligand displacement, radioligand | – | cell membranes | 360 nM
CC[C@@H]1NC(=O)[C@H](CCCNC(=N)N)NC(=O)[C@H](NC(=O)C(C)C)CNC(=O)c2cc(F)c(c(F)c2)N=Nc2c(F)cc(cc2F)C(=O)NCCNC(=O)[C@@H](Cc2ccccc2)NC1=O | WDR5 (Homo sapiens, UniProt P61964) | ligand displacement, FP | – | – | ~448 nM
CN1CCN(c2cccc3c2ccn3C(=O)c2ccccc2)CC1 | HTR6 | ligand displacement, radioligand | – | cell membranes | 2200 nM
COc1cc2c(cc1OC)C(=O)/C(=C\c1ccc([N+](C)(C)C)cc1)C2 | ACHE (Homo sapiens, UniProt P22303) | enzyme activity, inhibitor | – | – | 3200 nM

Compound | target | test | system | setting | Ki
N=C(N)Nc1ccc(C(=O)NCC2(Nc3ccccc3)CCN(Cc3ccccc3)CC2)cc1 | NPFFR1 | cell-free assay | – | – | 1970 nM
CC(C)C[C@H](NC(=O)[C@H](Cc1cccc2ccccc12)NC(=O)CNC(=O)[C@H](NC(=O)[C@@H](N)Cc1ccc(O)cc1)[C@H](C)O)C(=O)N[C@@H](CO)C(N)=O | Oprd1 | ligand displacement, radioligand | – | pH 7.4, cell membranes | 0.9 nM
CC(=O)N[C@@H](CCCNC(=N)N)C(=O)N[C@@H](Cc1ccc(O)cc1)C(=O)N[C@@H](CCCNC(=N)NC(=O)NCCCCN)C(=O)N[C@@H](CC(C)C)C(=O)N[C@H](CCCNC(=N)N)C(=O)N[C@@H](Cc1ccc(O)cc1)C(N)=O | NPY4R (Homo sapiens, UniProt P50391) | ligand displacement, radioligand | – | – | 568 nM
CC[C@H](C)[C@@H]1NC(=O)[C@H](COP(=O)(O)O)NC(=O)[C@H](CCSC)NC(=O)CSC[C@@H](C(N)=O)NC(=O)[C@H](C)NC(=O)[C@H](C(C)C)NC(=O)[C@H](Cc2ccc(OP(=O)(O)O)cc2)NC1=O | PPM1D | phosphatase activity, inhibitor, malachite green | – | together with: ATM pS1981 peptide | ~5000 nM and 5000 nM
CCCN(CCC)CC1CCCCN1CCNC(=O)N1c2ccccc2C(=O)Nc2cccnc21 (stereo not drawn) | CHRM2 | cell-free assay, radioligand | – | – | 15.8 nM
CNC(=O)C1CCN(c2ccccc2NC(=O)c2ccc(-c3cc(O)ccc3C)c(C)n2)CC1 | LCK (Homo sapiens, UniProt P06239) | cell-free assay, TR-FRET | – | – | 1 nM
CC[C@H](C)[C@H](NC(=O)[C@H](Cc1ccccc1)NC(=O)[C@H](CCC(=O)O)NC(=O)[C@H](CCCNC(=N)N)NC(=O)CNC(=O)[C@H](CO)NC(=O)[C@H](CC(C)C)NC(=O)[C@H](CCCNC(=N)N)NC(=O)[C@@H](NC(=O)CNC(=O)[C@H](Cc1ccc(O)cc1)NC(=O)[C@@H]1CCCN1C(=O)[C@H](C)NC(=O)[C@H](C)NC(=O)[C@@H](N)CCCNC(=N)N)C(C)C)C(=O)N[C@@H](CCCNC(=N)N)C(=O)N[C@@H](C)C(=O)N[C@@]1(C)CCCC=CCCC[C@@](C)(C(=O)NCC(=O)NCC(=O)N[C@@H](CO)C(=O)N[C@@H](CCCNC(=N)N)C(=O)N[C@@H](Cc2c[nH]c3ccccc23)C(=O)O)NC(=O)[C@H]([C@@H](C)O)NC(=O)[C@H](Cc2ccccc2)NC(=O)[C@H]([C@@H](C)CC)NC1=O | RXFP3 | ligand displacement | – | – | 955 nM
COC(=O)Cc1cn2c(n1)[C@H](NC(C)=O)[C@@H](O)[C@H](O)[C@H]2CO | human lysosomal hexosaminidase A/B | – | – | – | 0.55 ± 0.05 nM
CCCC[C@@H]1NC(=O)[C@H](Cc2ccccc2)NC(=O)CNC(=O)[C@H](NC(=O)[C@@H](N)Cc2ccc(O)cc2)C(C)(C)SSC(C)(C)[C@@H](C(=O)N[C@@H](Cc2c[nH]c3ccccc23)C(=O)NCc2cc(C(F)(F)F)cc(C(F)(F)F)c2)NC(=O)[C@@H]2CCCN2C1=O | OPRD1 (Homo sapiens, UniProt P41143) | ligand displacement, radioligand | – | cell membranes | 150 nM
O=C(O)c1cccc(CP(=O)(O)O)n1 | Beta-lactamase L1 (Stenotrophomonas maltophilia, UniProt P52700) | enzyme activity, inhibitor | – | – | 500 nM
COc1ccc2c(c1)c(CCN(C)C)cn2S(=O)(=O)c1ccccc1 | HTR6 | ligand displacement, radioligand | – | cell membranes | 11 nM
CC(C)C[C@@H]1NC(=O)[C@H](Cc2ccc(O)cc2)NC(=O)[C@H](CCCNC(=N)N)NC(=O)[C@H](C(C)C)NC(=O)[C@@H]2CCCN2C(=O)[C@H](Cc2ccccc2)NC(=O)[C@H](C)NC(=O)[C@H](CC(N)=O)NC(=O)[C@H](Cc2ccc(OS(=O)(=O)F)cc2)NC(=O)[C@@H](Cc2ccccc2)NC(=O)CSC[C@@H](C(=O)NCCOCCOCC(=O)NCCOCCOCC(=O)N[C@@H](CCCCN=[N+]=[N-])C(N)=O)NC(=O)[C@H](Cc2c[nH]c3ccccc23)NC(=O)[C@H](CCCCN)NC(=O)[C@H](CCCCN)NC1=O | Nectin-4, extracellular domain (Homo sapiens, UniProt Q96NY8) | covalent binder, SPR single-cycle kinetics, two-state model | PBS-T | 800 s contact, 200 s dissociation, 25 °C | 3580 nM
O=C1c2cccc3cccc(c23)C(=O)N1CCNCCN1C(=O)c2cccc3cccc(c23)C1=O | Chitooligosaccharidolytic beta-N-acetylglucosaminidase (Ostrinia furnacalis, UniProt Q06GJ0, W490A) | inhibitor | – | – | > 100000 nM
CCCN1CCO[C@@H]2c3cc(O)ccc3OC[C@H]21 | DRD3 (Homo sapiens, UniProt P35462) | – | – | – | 2.65 ± 0.14 nM
CC1(CCN2CCc3ccccc3C2)Cc2cc(Cl)ccc2C1=O (single isomer, unassigned) | HTR1A (Homo sapiens, UniProt P08908) | ligand displacement, radioligand | – | – | 376 nM
Cc1cc(O)cc(C)c1CC(N)C(=O)NC1CCNc2ccc(Cn3cncn3)cc21 (stereo not drawn) | Oprd1 | ligand displacement, radioligand | – | cell membranes | 50 nM
COc1ccc2ccc3c(c2c1)C=[N+]1C2CCCCC2[N+]2=Cc4ccc(OCCN5CCCCC5)cc4[O][Au-]21[O]3.F[P-](F)(F)(F)(F)F (stereo not drawn) | Klebsiella pneumoniae thioredoxin reductase | competitive inhibitor | carbapenem-resistant | together with: DTNB | 15400 nM
CCCCCCCCNP(=O)(Oc1ccccc1)O[C@@H]1O[C@H](CO)[C@@H](O)[C@H](O)[C@H]1F (stereo partly drawn) | GBA1 (Homo sapiens, UniProt P04062) | enzyme activity, irreversible inhibitor | – | pH 5.5, 37 °C, together with: 2,4-dinitrophenyl beta-D-glucopyranoside | 36200 nM

A few entries again:
Compound | target | test | system | setting | Ki
CCCC[C@@H]1NC(=O)[C@H](Cc2ccccc2)NC(=O)CNC(=O)[C@H](NC(=O)[C@@H](N)Cc2ccc(O)cc2)C(C)(C)SSC(C)(C)[C@@H](C(=O)N[C@@H](Cc2c[nH]c3ccccc23)C(=O)NCc2cc(C(F)(F)F)cc(C(F)(F)F)c2)NC(=O)[C@@H]2CCCN2C1=O | OPRD1 (Homo sapiens, UniProt P41143) | ligand displacement, radioligand | – | cell membranes | 150 nM
O=C(O)c1cccc(CP(=O)(O)O)n1 | Beta-lactamase L1 (Stenotrophomonas maltophilia, UniProt P52700) | enzyme activity, inhibitor | – | – | 500 nM
COc1ccc2c(c1)c(CCN(C)C)cn2S(=O)(=O)c1ccccc1 | HTR6 | ligand displacement, radioligand | – | cell membranes | 11 nM
CC(C)C[C@@H]1NC(=O)[C@H](Cc2ccc(O)cc2)NC(=O)[C@H](CCCNC(=N)N)NC(=O)[C@H](C(C)C)NC(=O)[C@@H]2CCCN2C(=O)[C@H](Cc2ccccc2)NC(=O)[C@H](C)NC(=O)[C@H](CC(N)=O)NC(=O)[C@H](Cc2ccc(OS(=O)(=O)F)cc2)NC(=O)[C@@H](Cc2ccccc2)NC(=O)CSC[C@@H](C(=O)NCCOCCOCC(=O)NCCOCCOCC(=O)N[C@@H](CCCCN=[N+]=[N-])C(N)=O)NC(=O)[C@H](Cc2c[nH]c3ccccc23)NC(=O)[C@H](CCCCN)NC(=O)[C@H](CCCCN)NC1=O | Nectin-4, extracellular domain (Homo sapiens, UniProt Q96NY8) | covalent binder, SPR single-cycle kinetics, two-state model | PBS-T | 800 s contact, 200 s dissociation, 25 °C | 3580 nM
O=C1c2cccc3cccc(c23)C(=O)N1CCNCCN1C(=O)c2cccc3cccc(c23)C1=O | Chitooligosaccharidolytic beta-N-acetylglucosaminidase (Ostrinia furnacalis, UniProt Q06GJ0, W490A) | inhibitor | – | – | > 100000 nM
